Results from different studies.
Each numbered part is a random draw from the data of one study; scales do not carry over between parts.

Sample 1
Target: RING finger protein unkempt homolog, zinc fingers 1-6, GST-SBP tag (UNK, Homo sapiens, UniProt Q9C0B0, residues 30-357)
Method: RNA Bind-n-Seq
Molecule type: RNA
Matrix: in vitro
Tested at: not given
Notes: RNA with constant flanks, ends assumed
Baseline: input RNA pool
Direction: higher = stronger binding
Quantity: bound/input enrichment
All sequences stand within: GGGAGUUCUACAGUCCGACGAUC … CAACAGAGGAUUGAGCAUCA
Target sequence (chain): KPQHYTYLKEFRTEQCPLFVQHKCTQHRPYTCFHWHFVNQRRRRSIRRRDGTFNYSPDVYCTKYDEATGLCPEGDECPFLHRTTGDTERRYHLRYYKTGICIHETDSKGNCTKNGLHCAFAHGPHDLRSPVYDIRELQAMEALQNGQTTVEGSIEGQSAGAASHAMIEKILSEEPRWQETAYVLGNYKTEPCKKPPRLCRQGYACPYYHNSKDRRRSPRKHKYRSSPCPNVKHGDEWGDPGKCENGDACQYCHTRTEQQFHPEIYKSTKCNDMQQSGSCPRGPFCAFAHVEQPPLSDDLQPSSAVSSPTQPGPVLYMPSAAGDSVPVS
CACUCUUCUCCCUGUUUCUAUUCCCUGACCCCUGAGUAGCUGUAGUUUCCCCUGUAGCUUCCGCUAAAUAUCAAGCAACUCCACAAGCUUCUUAAGAAGCCAUGGACACCAAGUAGCACA: 0.799 ratio
AGGUGGCAGAGAGGCUGGGGAGUUGCCCAUCGCUGCAGCCAGCUGCACAGUCUCAGCCGCCCCGCACAGCAGAAUCCGGGGCCACUUCAGAAUGUGAAAGGAUGCACGGUUGUAUUCACA: 0.148 ratio
AUGCAGUAUGAGACCAACAGCUUGGACUUCAAAGUCGGGGCGGAUGGGACAGUCUUCGCCACCCGGGAGUUGAAGAUCCCCUCAGAGCAGGUGGCCUUUACCGUCACUGCGCGGGAACGC: 0.0871 ratio
UUUUGCAUUGUUGGUGUUGACUGUUGACUCUGUAGUGUAGGAGCAAUGAGCAUGUAAUUGCCGCACAAGUAGAGCGGAGGAUAGAGCAAAUUAUGGCUGAUGGAAAAGAUUUAAAUAGUC: 66.3 ratio
UUUUCAGUAAGACUUUCAGGCACUUCUUCCCUUUUGAUUUCUUUUUUUUCCUCUGUUUUUCCGCAUGCAAGUAUGUUGGUACGUUAUGUCCUGGUUUAAAAAGGAUUAAAAUUUUAAAAU: 1.04 ratio
GAAUUACAACCAUAAAAUGUGUAAUGUUUUGAACAGUAUUCUGUUGGGAUGGAGAUUUUACCGGUUCAGACAAAUCUUCUAGAUCUGCUUCACCCAGCAUAUUUUCUAUUCAGUGAUAUA: 0.208 ratio
ACAGUUACUUAAUUUCUAGAGUUCAGGCCUCUGGGAUCAACCCCAGACUGGGCCAGAAUGUCCGUGAAGGUUUUAUUGUGCCCGGUUGGAGGAUAACGUUCUUUGGGUACUUUUUGUGGG: 0.27 ratio
CAGAAACUUUGUGAAAUUGAGAGGAUACAUUUUUUUCUAAGUAAGAAGAAAACCGAUGAACUCCGAAAUCUACACAAACUGCUUUACAACAGGCCAGGCACUGUGUCCUCAUUAAAGAAG: 0.261 ratio

Sample 2
Target: Interferon regulatory factor 7, full length, phosphomimetic (IRF7, Homo sapiens, UniProt Q92985, residues 1-503, S471D/S472D/S475D/S476D/S477D/S483D/S484D/S487D)
Method: protein-binding microarray
Molecule type: double-stranded DNA, one strand shown
Matrix: in vitro
Tested at: 2200 nM top
Notes: 60-bp whole probe
With: salmon DNA 0.4 mg/ml
Baseline: random background probes
Direction: higher = stronger binding
Quantity: fitted relative affinity
All sequences stand within: GCCTAGCAC … GTCTTGATTCGCTTGACGCTGCTG
Construct (chain): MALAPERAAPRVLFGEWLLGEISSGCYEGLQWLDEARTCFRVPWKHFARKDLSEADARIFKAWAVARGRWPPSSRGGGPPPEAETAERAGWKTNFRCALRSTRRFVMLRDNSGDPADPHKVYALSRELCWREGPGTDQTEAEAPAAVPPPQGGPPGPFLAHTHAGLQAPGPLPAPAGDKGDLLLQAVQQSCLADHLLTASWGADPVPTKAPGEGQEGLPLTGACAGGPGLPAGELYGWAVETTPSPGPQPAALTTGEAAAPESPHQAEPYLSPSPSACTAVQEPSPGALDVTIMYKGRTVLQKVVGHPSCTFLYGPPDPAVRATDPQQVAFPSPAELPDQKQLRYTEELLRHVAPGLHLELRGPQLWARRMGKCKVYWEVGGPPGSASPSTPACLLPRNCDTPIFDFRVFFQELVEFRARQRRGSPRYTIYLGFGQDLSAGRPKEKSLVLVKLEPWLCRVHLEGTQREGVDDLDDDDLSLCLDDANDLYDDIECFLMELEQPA
GACGGACTGCGTATCGGGACGTGCTAG: -0.255 z-score
TTAGGTAACGACACTGGGTTAGTGCTA: -0.561 z-score
ATCGATTTCTTCCCTGTGAAAGTGCTA: 1.87 z-score
GGTCCTCTCTCTATTCAGAGGTGCTAG: 1.07 z-score
TTCTGATTGAATCTCCCATTGTGCTAG: 0.959 z-score
TTAGGTATCCTACTGCTTGAGTGCTAG: 0.585 z-score
TTAGAGCTGGGGACTGGATTAGTGCTA: -1.05 z-score
GACGATATCGGGACGGGAGACGTGCTA: -0.277 z-score
GACGGTATCGACTCTCGGGACGTGCTA: 0.23 z-score
TTGGGTTTCGGGACTGGGTTAGTGCTA: 2.74 z-score
TCAAGTTTCCATTTTCAACTGTGCTAG: 4.88 z-score
TCAAATTAGTGTTTCCCACTGTGCTAG: 0.511 z-score
TCATCTCTGGCCCTCCTACTGTGCTAG: 1.31 z-score
TTAGGACTGTGGTTTCGGTTAGTGCTA: 4.74 z-score
GACGGTTTCGGACAGGGGACGTGCTAG: 1.95 z-score
TTAGATTTCAGACTGGATTGGTGCTAG: 0.0148 z-score
AACGAACTGGGGTTTCGAGACGTGCTA: 1.13 z-score
ATCTCTGTCCGTGCTCAGCTCGTGCTA: 1.04 z-score
GGCGGTATCCTTATCCTGACGTGCTAG: 0.279 z-score

Sample 3
Target: RNA binding protein fox-1 homolog 2, RRM domain, GST-SBP tag (RBFOX2, Homo sapiens, UniProt O43251-10, residues 100-194)
Method: RNA Bind-n-Seq
Molecule type: RNA
Matrix: in vitro
Tested at: 365 nM
Notes: natural RNA segment, single round, ends assumed
Baseline: no-protein control
Direction: higher = stronger binding
Quantity: RBNS enrichment (R)
All sequences stand within: GGGAGUUCUACAGUCCGACGAUC … UGGAAUUCUCGGGUGCCAA
Construct (chain): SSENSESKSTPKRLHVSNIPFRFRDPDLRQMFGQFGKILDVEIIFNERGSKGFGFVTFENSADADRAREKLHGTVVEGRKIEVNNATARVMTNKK
CCCAUGCCUGUAAUCCCAGCACUUUGGGGGGCCAAGGCAGGCUGGAUCACCUGAGGACAGGAGUUCGAGACCAGUCUGGCCAACAUGGGGAAACCCCGUCUCUACUAAAA: 0.568
UAUAUAUAUAUAUAUACAUAUACAUAUAUAUGUUGAGGGAGGAGUAAGAAAGAAAGCCAGGACAAUAACUGGGCCAGCAGCUCUGAAGCACACCUUCCCCGUCUGUCCCA: 0.386
GUGGGGAGGGACUGCCUGAGGCCGCAGCUGGUGGGCCUCCUGCAUGUACUAGCAUCCGCAUUCCUCCCUCAGGGCAUGGUCUCAUCUCUGCAUCAGGAAUUUACCAGGAG: 23.7
AGGGCAUCCUGACUGAACUGUGUCUAAGGGUCGGUCGGUUUACCACUGGACGGGUGCUGCAUCGGCAAGGCCAAGUUGAACACCGGAUGGUGCCAACCAUCGGUUGUUUG: 0.367
AAAAUGAUGAAACGGAAAUCGGUCCUGUCGUCUUGUUAGCAUGAUUCAUGUAUUUAUAUAGAUCCGAUUAUUUUAAUUUUUGCUUUCUUUGUGUAAAUUUUAUGUACAGA: 6.78
CGGUUCUCAUCUCAGGUUGGUAUCUUUCAUCCAGUCCAAAAUGCAAGCGGCACUAAUGAAUUGUUCUUAAUCCGGCACGUCUAAUUUGACACGUUUUCAUGAAGGAAUAA: 0.641
UAACAGCCUUUUGUACAGAUAUCUACAAAUCAAACGAUGUCUCUAUCCAGUGCUUGCCCUCGGAGUGUCUUUAAAUGCACCAAGUGUACAAUAAAAACAUGGAAGUCAAU: 0.318
UUUUUCUGAAAAAAUAUAUAUACAUAUAUUGCUUUAUUUGAAACAAAUUAAAAUAUGCUGCAUUUGACACCUGGCUAGUUUCUUUUAUUGAUACCCACCUAGUUAUUGAA: 1.17

Sample 4
Target: Prothrombin, mature alpha-thrombin (F2, Homo sapiens, UniProt P00734)
Method: aptamer microarray, sandwich
Molecule type: DNA with 2'F-ANA
Matrix: in vitro
Tested at: 200 nM
Notes: whole 15-mer aptamer, many near background
With: Cy3 exosite-II aptamer, 400 nM
Direction: higher = stronger binding
Quantity: mean fluorescence intensity
Sequence: GGTTGGTGTGGTTGG
2'F-ANA at 2 3 5 7 8 11 12 15: 178 a.u.
2'F-ANA at 1 3 6 9 11 12 15: 350 a.u.
2'F-ANA at 1 2 3 6 7 8: 266 a.u.
2'F-ANA at 5 7 9 11 14 15: 47.9 a.u.
2'F-ANA at 1 2 4 5 8 9 10 12: 48.6 a.u.
2'F-ANA at 2 4 5 10 11 13 14: 58 a.u.
2'F-ANA at 1 2 6 7 8 9 12 13: 265 a.u.
2'F-ANA at 1 4 6 7 8 9 10 13 15: 53.5 a.u.
2'F-ANA at 1 2 3 4 5 6 7 8 9 11 13: 56.6 a.u.
2'F-ANA at 1 4 5 6 8 10 11 12 13 15: 45.8 a.u.
2'F-ANA at 1 3 7 8 9 11 13 14 15: 92.5 a.u.
2'F-ANA at 1 4 6 9 10 14 15: 55.5 a.u.
2'F-ANA at 1 2 4 8 9 11 14: 47.1 a.u.
2'F-ANA at 2 3 4 5 7 9 10 11 15: 49.6 a.u.
2'F-ANA at 1 2 9 10 12 13 14: 46.1 a.u.
2'F-ANA at 1 2 4 6 10 12: 91.9 a.u.
2'F-ANA at 2 4 7 8 12 13 15: 552 a.u.
2'F-ANA at 4 5 7 8 11 12 13: 83.9 a.u.
2'F-ANA at 1 3 4 5 6 7 8 9 10 14: 47.8 a.u.
2'F-ANA at 1 4 5 6 7 8 9 10 12 14: 48.5 a.u.
2'F-ANA at 3 5 7 10 13 14 15: 133 a.u.
2'F-ANA at 1 5 7 10 12 13 14: 50.3 a.u.
2'F-ANA at 3 4 5 6 10 11 12 14 15: 48.3 a.u.
2'F-ANA at 3 4 5 6 9 12 13: 109 a.u.
